Measurements from different studies.

The GI50 of CCN(C(=O)c1cc(F)ccc1Oc1nncnc1N1CCC2(C1)CN([C@H](CCCN(C)CCOC)C(C)C)C2)C(C)C is reported as greater than 10 µM (SK-N-SH; cell growth; 168 h).
Cc1nc(NCCOCCOCCNc2ncc(C(=O)NC3=NN(c4ccc(Cl)c(Cl)c4)CC3)c(C)n2)ncc1C(=O)NC1=NN(c2ccc(Cl)c(Cl)c2)CC1 has an EC50 of 35 nM (EM-2; cell growth or viability, ATP luminescence; 72 h).
For CNS(=O)(=O)Nc1nccc(Cc2c(C)c3ccc(Oc4ncccc4F)cc3oc2=O)c1F, the IC50 was greater than 1000 nM (J82; cell viability; 7 days).
Under “log2 fold change”, CN1CCCNC(=O)c2cccc(c2)C(=O)NCCCN(C)CCCNc2cccc3c2C(=O)c2cccc(c2C3=O)NCCC1 is recorded as 7.27 (SAS; RNA-Seq, measured: GPR19 mRNA; 1 µM, 6 h; reference: untreated cells).
For CCN(CC)CC(=O)Nc1cccc(-n2cc(-c3ccc4ccc(-c5cn(-c6cccc(NC(=O)CN(CC)CC)c6)nn5)cc4c3)nn2)c1, the fold regulation was -1.15 (RCC4; PCR array, measured: PDGFA; 5 x IC50, 4 h, normoxia; reference: untreated).
Under “log2 fold change”, Cc1ncsc1-c1ccc(C(C)NC(=O)C2CC(O)CN2C(=O)C(NC(=O)CCCCCCCCCCN2CCCC(Nc3ncc(Cl)c(Nc4ccccc4S(=O)(=O)C(C)C)n3)C2)C(C)(C)C)cc1 (centres unmarked) is recorded as -1.08 (22Rv1; RNA-seq, measured: XYLT2 mRNA; concentration not given; reference: DMSO).
For Cn1ncc2cc(-c3cncc(Cl)c3N3CCC4(CCNC4=O)CC3)ccc21, “log2 fold change” read -1.26 (LS174T; gene expression, microarray, measured: VASN mRNA; concentration not given, 4 h; reference: untreated cells).
With CC(C)c1ccc(N(C)c2ccc3c(c2)OCC[C@H]3CNc2cnccc2C(=O)O)cc1 the IC50 was 46.8 nM (A2058; cell viability, CellTiter-Glo; 7 days).

For quick reference, copied from above:
For CCN(CC)CC(=O)Nc1cccc(-n2cc(-c3ccc4ccc(-c5cn(-c6cccc(NC(=O)CN(CC)CC)c6)nn5)cc4c3)nn2)c1, the fold regulation was -1.15 (RCC4; PCR array, measured: PDGFA; 5 x IC50, 4 h, normoxia; reference: untreated).
